Measured values gathered from unrelated publications.
Every numbered part comes from another study and shows a few of its results, in no order. Changes are numbered by the printed parent chain.

Series 1
Target: CCNE2, cyclin fold, Cln2 fusion (human)
Technique: yeast growth competition, sequencing
Sample: yeast
Setting: weak parent motif
Reference: not given
Direction: higher = stronger binding
Starting sequence: CDC6 docking peptide (human); TLKGRRLVFDNQL; partner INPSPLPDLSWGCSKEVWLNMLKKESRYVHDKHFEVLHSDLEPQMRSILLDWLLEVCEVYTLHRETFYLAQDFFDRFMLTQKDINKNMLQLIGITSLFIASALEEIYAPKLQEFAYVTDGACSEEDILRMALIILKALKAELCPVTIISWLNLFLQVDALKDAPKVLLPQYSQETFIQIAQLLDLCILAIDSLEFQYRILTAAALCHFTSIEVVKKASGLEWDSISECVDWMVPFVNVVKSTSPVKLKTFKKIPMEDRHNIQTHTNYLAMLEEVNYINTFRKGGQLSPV
`V8Y` — result for “normalised enrichment score”: 0.254.
For `L13E`, “normalised enrichment score” read 0.4.
Under “normalised enrichment score”, `Q12P` is recorded as 0.208.
Under “normalised enrichment score”, `L7Y` is recorded as 1.11.
Under “normalised enrichment score”, `Q12H` is recorded as 0.337.
`V8N` — result for “normalised enrichment score”: 1.16.

Series 2
Target: Histone acetyltransferase KAT6A, both winged helices, GST fusion (KAT6A, Homo sapiens, UniProt Q92794, residues 1-181)
Technique: protein binding microarray
Form: double-stranded DNA, one strand shown
Sample: in vitro
Concentration: not given
Setting: 8-mer, flanks averaged, mean of 2 arrays, mostly near background
Reference: not given
Direction: higher = stronger binding
Residues (chain): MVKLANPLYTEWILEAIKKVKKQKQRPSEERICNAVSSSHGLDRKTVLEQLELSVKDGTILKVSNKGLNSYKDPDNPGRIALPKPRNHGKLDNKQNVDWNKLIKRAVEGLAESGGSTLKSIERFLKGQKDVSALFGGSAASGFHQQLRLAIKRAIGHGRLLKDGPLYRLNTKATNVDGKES
With `ACGCGGAC` the E-score was 0.309.
With `CGCCTCAG` the E-score was 0.175.
With `ATTAGGAG` the E-score was -0.176.
`ATCGATGG` has an E-score of -0.105.
The E-score of `TAACCATA` is reported as -0.0277.
`GTGGCTGA` has an E-score of -0.0558.
The E-score of `AGGTATTA` is reported as -0.154.
The E-score of `TAGCAATA` is reported as -0.0929.
`GCTAAAGA` gave an E-score of 0.0204.

Series 3
Target: ABI1, truncated, D143A, DHFR fusion (Arabidopsis thaliana)
Technique: DHFR PCA, deep sequencing
Sample: yeast
Setting: methotrexate growth selection, single substitutions
Added: (+)-ABA 1.4 µM
Reference: wild-type fitted maximum
Direction: higher = stronger binding
Starting sequence: PYL1, truncated, DHFR fusion (Arabidopsis thaliana); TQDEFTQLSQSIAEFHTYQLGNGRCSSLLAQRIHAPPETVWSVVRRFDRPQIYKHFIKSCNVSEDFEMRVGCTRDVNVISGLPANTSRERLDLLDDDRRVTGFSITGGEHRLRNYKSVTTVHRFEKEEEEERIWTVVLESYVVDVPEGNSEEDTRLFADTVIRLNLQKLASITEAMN
`I162S` — result for “relative binding score”: 8.85%.
Under “relative binding score”, `S9Q` is recorded as 74.1%.
Under “relative binding score”, `G148C` is recorded as 9.59%.
`F56Q`: “relative binding score” -6.29%.
For `V70D`, “relative binding score” read 0.653%.
Under “relative binding score”, `D95V` is recorded as -10%.

Other studies, line by line
`PhoQ, residues 284 288 289 292 302 303 HSSMNL` has a fold induction of 3.97 (PhoP, residues 12 14 15 18 19 LHSVW (Escherichia coli, UniProt P23836); Sort-seq, refers to: YFP reporter; E. coli; PhoQ-PhoP variant library, added: 10 µM Mg2+; reference: high Mg2+ state, higher = stronger signaling).

Excerpt of the above (series 3):
Under “relative binding score”, `S9Q` is recorded as 74.1%.
`I162S` — result for “relative binding score”: 8.85%.
Under “relative binding score”, `G148C` is recorded as 9.59%.
